Measured values pooled from the literature.
Lines come from different studies, so protocols differ. ± marks the error that the study gave.
CDK2 with cyclin A2: Cyclin-dependent kinase 2, with cyclin A2 (CDK2, Homo sapiens, UniProt P24941)
CDK2: Cyclin-dependent kinase 2 (CDK2, Homo sapiens, UniProt P24941)
CDK2 with cyclin A: Cyclin-dependent kinase 2, with cyclin A (CDK2, Homo sapiens, UniProt P24941)

`CC(=O)Nc1c(N)nc(SCC(=O)NN)[nH]c1=O` has a remaining activity of 96% (CDK2 with cyclin A2; kinase activity; 0.2 nM).
For `CCN(CC)c1ccc(C2=NNC(=O)CC2C)cc1[N+](=O)[O-]` (centres unmarked), the remaining activity was 121% (Cyclin-dependent kinase 2, with cyclin E (CDK2, Homo sapiens, UniProt P24941); enzyme activity, inhibitor; 10 µM; relative to: vehicle).
The remaining activity of `C=CC(=O)N1CCC[C@@H](n2nc(-c3ccc(Oc4ccccc4)cc3)c3c(N)ncnc32)C1` is reported as 86.4 ± 1.1% (Cyclin-dependent kinase 2, with cyclin A1 (CDK2, Homo sapiens, UniProt P24941); kinase activity, inhibitor, HotSpot radiometric; 100 nM, together with: ATP 10 µM).
The remaining activity of `CNC(=O)c1cc(Oc2ccc(NC(=O)Nc3ccc(Cl)c(C(F)(F)F)c3)cc2)ccn1` is reported as 56.9% (CDK2 with cyclin A2; kinase activity, inhibitor, ADP-Glo kinase; 20 nM).
`CC[C@@H]1[C@H](F)C(=O)N[C@@H]1COc1nccc2cc(C(N)=O)c(OC)cc12` has an inhibition of 12.3% (CDK2; ATP-site probe binding, ActivX profiling; THP-1 cell lysate; 0.2 mM, Lys1 site).
The remaining binding of `C[C@@H](c1ccc(-n2cnc3c(N)ncnc32)cc1)N1CCc2nn(C)c(Cc3ccccc3)c2C1=O` is reported as 78% (CDK2; KINOMEscan; 0.1 µM; relative to: DMSO control).
The remaining activity of `CC(=O)Nc1c(N)nc(SCC(=O)N/N=C/c2ccc([N+](=O)[O-])cc2)[nH]c1=O` is reported as 85% (CDK2 with cyclin A2; kinase activity; 10 nM).
Under inhibition, `CC(C)=CCc1c(O)c(CC=C(C)C)c2oc3c(O)ccc(O)c3c(=O)c2c1O` is recorded as “inactive” (Cyclin-dependent kinase 2, with cyclin E1 (CDK2, Homo sapiens, UniProt P24941); kinase activity, inhibitor; concentration not given).
With `C=CC(=O)N1CCC(C(=O)NCC(=O)N2CCN(c3nc(-c4cnc(N)nc4C(F)F)nc(N4CCOCC4)n3)CC2)CC1` the remaining binding was 100% (CDK2; KINOMEscan; 1 µM).
The remaining activity of `CCCOc1ccc(OC)c(F)c1C(=O)c1ccc(C(=O)N[C@@H]2CNC[C@H]2NC(=O)c2ccc3[nH]ncc3c2)cc1` is reported as 90% (CDK2 with cyclin A; enzyme activity; 10 µM).
The binding enthalpy of `CC(=O)N=S(=O)(O)c1ccc(N/C=C2\C(=O)Nc3ccc4ncsc4c32)cc1` is reported as -7.23 kcal/mol (CDK2 with cyclin A; isothermal titration calorimetry; concentration not given, 298 K, together with: cyclin A).

Repeated from above:
The remaining activity of `CCCOc1ccc(OC)c(F)c1C(=O)c1ccc(C(=O)N[C@@H]2CNC[C@H]2NC(=O)c2ccc3[nH]ncc3c2)cc1` is reported as 90% (CDK2 with cyclin A; enzyme activity; 10 µM).
